Results of several laboratories.
Every numbered part comes from another study and shows a few of its results, in no order. Changes are numbered by the printed parent chain.

Block 1
Target: RNA binding protein fox-1 homolog 2, RRM domain, GST-SBP tag (RBFOX2, Homo sapiens, UniProt O43251-10, residues 100-194)
Method: RNA Bind-n-Seq
Form: RNA
Sample: in vitro
Tested at: 365 nM
Notes: natural RNA segment, single round, ends assumed
Reference: no-protein control
Reading: higher = stronger binding
Quantity: RBNS enrichment (R)
All sequences stand within: GGGAGUUCUACAGUCCGACGAUC … UGGAAUUCUCGGGUGCCAA
Residues (chain): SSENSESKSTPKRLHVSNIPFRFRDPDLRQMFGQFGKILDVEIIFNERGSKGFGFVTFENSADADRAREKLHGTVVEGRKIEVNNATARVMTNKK
ACAACGAUUUUCCCAAAUUUUGUACAAUCUGUCCUGGAAAGCAAACCCCUUUUAAAAUCUAAUGUCUGGGCUUUGAGUAUUAGCUCAUUUAGGGUGGACAAAUGCAUUAC: 0.461
GUCUUGAACUCCCAACCUCAAGUGAUCUGCCCGCCUCGGCCUCCCAACGUGCUGGGAUUACAGGUGUGAGCCACUACGCCCCGGCCCAACUGGAUGGUUUUUGAUUGAAG: 0.345
ACCCCGAUUGAAGUCUCUGAAACUUUCCUAUGGUUUUCUGUAUUAUAUGUCUGGAUGGAGCUGUUUAGAUACAUUGAUUGGUGGAUAUUUGGAGAAAGCAACAAAGAUAU: 0.707
UUUAACAAACUAGCAUGAGGCUUUUUAUAUCUAAAUGCUACGUGAUAGACAAUUUCAGCUAGCCACAUAUUGUAUGUAUGAGAUUCAUAAAGACUUUCAAUCAUUUCAUU: 0.538
GUAUAGGAGACUGACGGGGAGCAGAAAGGUCCUGACUCCCUCCCUCCCUGUCACCCUGGACCCGUCCAGGCCAGCGCACCUUCUUUCUUACUAGUCUGUUUUACUGGCUG: 0.358
UUUAUCGUUCCAAGCUUCAUCUUAGCUUCAGAACAAACUGUUAAAUCAUGAUUUUGCAGAACCUUUGGUUUGGACAGUUCUGUUCUUUUGGAUUUGGAAUAGAUUACAUA: 0.484
UUAAUGCUUUCCCACCUGCUCCAAGAGAACUAGCCCUCAACCAGUGCUGCGGCCUGUUCAUAUGCUCUCAUACUUUUUCAAAUCAUGAUGAGAAUUUUUCUCCUAUAUAC: 0.701
UUGGUGACAGAAGGGACAGACACUUGUGCACAGGUGUCUUUGGUGAUGGGGUUUUUUUUUUUAUAACUUAGUAAAAAAAAAAAAAUGUAUGUGGAAUUCUGUCUCUUGGU: 3.48
GAGCUAAGGGGUGUGGAGUCCUGCUCCUCCAUUUGUCCUGAUCAUUUCAACACCUGGCCCUUGCUCUCCUGCCCGUGCCAGGACUCCCUAACUCAGGGAGGGAGGGGAGG: 0.55
AUGCUAGACAUGGAGAACUUGCUCUGUUUGUCCUUUCUACAUUUCUGUAGUUAACAGAACACUGUAAUGUGCCUUGCAGCUUAGUAACUUGUAAUAAAUUCAAUUGAUAU: 0.763

Block 2
Target: ABI1, truncated, D143A, DHFR fusion (Arabidopsis thaliana)
Method: DHFR PCA, deep sequencing
Sample: yeast
Notes: methotrexate growth selection, single substitutions
Added: (+)-ABA 0.11 µM
Reference: wild-type fitted maximum
Reading: higher = stronger binding
Quantity: relative binding score
Parent: PYL1, truncated, DHFR fusion (Arabidopsis thaliana); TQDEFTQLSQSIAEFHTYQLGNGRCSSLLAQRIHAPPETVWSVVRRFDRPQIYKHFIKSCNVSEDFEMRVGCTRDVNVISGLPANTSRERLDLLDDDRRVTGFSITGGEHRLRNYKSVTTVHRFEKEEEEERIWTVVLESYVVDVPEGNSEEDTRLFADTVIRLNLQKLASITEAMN; partner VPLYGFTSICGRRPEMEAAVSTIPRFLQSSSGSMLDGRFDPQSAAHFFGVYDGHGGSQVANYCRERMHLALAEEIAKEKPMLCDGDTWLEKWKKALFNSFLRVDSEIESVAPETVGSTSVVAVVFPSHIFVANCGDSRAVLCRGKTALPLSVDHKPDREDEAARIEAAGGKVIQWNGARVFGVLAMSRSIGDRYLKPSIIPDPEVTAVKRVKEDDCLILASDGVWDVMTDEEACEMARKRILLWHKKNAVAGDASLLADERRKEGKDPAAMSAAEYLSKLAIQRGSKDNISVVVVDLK
L112M: 10.5%
L8P: 0.121%
D65T: 9.28%
S87D: 2.87%
N61V: 53%
G107I: -6.65%
L20S: 40.6%
S27G: 55.4%
R111L: 5.89%
S87Y: 54.7%
R99W: 72.2%

Block 3
Target: Interferon regulatory factor 5, full length, phosphomimetic (IRF5, Homo sapiens, UniProt Q13568-2, residues 1-514, S451D/S453D/S456D/S462D)
Method: protein-binding microarray
Form: double-stranded DNA, one strand shown
Sample: in vitro
Tested at: 940 nM top
Notes: 60-bp whole probe
Added: salmon DNA 0.4 mg/ml
Reference: random background probes
Reading: higher = stronger binding
Quantity: fitted relative affinity
All sequences stand within: GCCTAGCAC … GTCTTGATTCGCTTGACGCTGCTG
TTAGGTCTCCTTCTCCTTTTGTGCTAG: 0.827 z-score
TTAGATCTCTGACTGGATTAGTGCTAG: -0.277 z-score
TTTGGTGTCTTTTGTGGAAACGTGCTA: -0.0569 z-score
GACTGACTGGGGTTTCGGGACGTGCTA: 2.1 z-score
TTAGGTATAGACTTTCGGTTAGTGCTA: 2.1 z-score
GACGATTTCAGACTGGAGAGGTGCTAG: -0.41 z-score
GAGGGTATCGACTATCGGGACGTGCTA: 2.88 z-score
TTAGATTTCAGACTGGATTAGTGCTAG: -0.108 z-score
TGAGAACTGAGTTTCGATTAGTGCTAG: 8.44 z-score
TTAGATCTCGGGTTTCGATTAGTGCTA: 5.18 z-score

Further values, each from its own experiment
PhoQ, residues 284 288 289 292 302 303 AGHLVA
fold induction (PhoP, residues 12 14 15 18 19 GHCSL (Escherichia coli, UniProt P23836); Sort-seq, item: YFP reporter; E. coli; PhoQ-PhoP variant library, added: 10 µM Mg2+; reference: high Mg2+ state, higher = stronger signaling): 13.3

For quick reference, copied from above (block 3):
TTAGGTCTCCTTCTCCTTTTGTGCTAG: 0.827 z-score
TTAGATCTCTGACTGGATTAGTGCTAG: -0.277 z-score
TTTGGTGTCTTTTGTGGAAACGTGCTA: -0.0569 z-score
